Published values of several laboratories.
Parts stem from different laboratories: compare values within a part only.

Study 1
Target: RING finger protein unkempt homolog, zinc fingers 1-6, GST-SBP tag (UNK, Homo sapiens, UniProt Q9C0B0, residues 30-357)
UniProt Q9C0B0, sequence (30-357, looked up): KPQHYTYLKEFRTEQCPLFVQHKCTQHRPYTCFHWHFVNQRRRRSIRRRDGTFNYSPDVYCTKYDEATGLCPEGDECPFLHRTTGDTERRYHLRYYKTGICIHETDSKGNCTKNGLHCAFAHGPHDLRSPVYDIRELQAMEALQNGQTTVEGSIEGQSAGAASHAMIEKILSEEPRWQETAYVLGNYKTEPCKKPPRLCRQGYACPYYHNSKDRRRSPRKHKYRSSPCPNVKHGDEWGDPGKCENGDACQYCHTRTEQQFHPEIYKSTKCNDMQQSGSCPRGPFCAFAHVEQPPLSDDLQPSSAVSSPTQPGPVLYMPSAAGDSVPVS
Method: RNA Bind-n-Seq
Form: RNA
Sample: in vitro
Tested at: not given
Notes: RNA with constant flanks, human and mouse sites, ends assumed
Reference: input RNA pool
Direction: higher = stronger binding
Shared flanks, not repeated: GGGAGUUCUACAGUCCGACGAUC … CAACAGAGGAUUGAGCAUCA
The bound/input enrichment of `CCAAGUGGACUGUUUCUGGCCUCGAGUCCGCUGCUGCCCAGCAUACACUUCUGGAGCAGCCUUAGUCCUGUCGCCCCACUGAGUCCUGCCAGGCUGCAAGGGCCGAACACACUUUUCCAG` is reported as 0.164 ratio.
With `AAUGUGACUUCCAUGAUAAACCUAAAGAAGACUACUUCAUCAGCUGAUGCUAAAAAUGUUAGUGUGACAUCUGAGGCUUUAUCUUCAAAUCCUUCCUACAACAGAGAAAAGCGUGUUUAU` the bound/input enrichment was 0.131 ratio.
The bound/input enrichment of `CAUAGGCCUGGGCUAGAGUGUCAAUGGCAGCCAGGGGUCUUCUCCAUCUCCAGAGGCCUUUAUAGAGCCGGCCAGAAUAUACAUUCCCUUCUGGCAAAAACCACUGGCACCCAGGAUCAU` is reported as 0.206 ratio.
`GUUCGGGGUAUUUUGUUGGGUGCUUUAGGAGGAGAGAAGAGGAGGACCUUGUCCUCAUCCUAGUAGUUUGGCUGGACUUGUACUGGCCGUUGGAAACCCCCAAGUACAUUUCCGUGUGGA` gave a bound/input enrichment of 0.572 ratio.
For `GCUCGGCAGCAGCGGCCCCGCCGGCCGGAGCGGGGGGGUGGGGCGCCGAGUGCGCGGGGAGGGGGGUCCUGGUCCUCGGCUCCUCGACUUGGUCGCGCCUCGACAGCGAACAUGUCUCGG`, the bound/input enrichment was 1.32 ratio.
`UUUUAAAGAACAAAAUAAAAACCAGAGGCCUGUCUCCACUUUAAAUCUGUCCUGGACAGUCUUUAUCAUGCAAGCGGAAGGUGGCAUUGCCGGAAGCACGCCGUUAACUUACACUGCCAC` gave a bound/input enrichment of 0.163 ratio.
`AGGAUUCAGAAGGAGGACUUUUGGCACUCUUAUAUCGACUAUGAGAUCUGCAUUCACACAAAUAGCAUGUGUUUUACAAUGAAAACAUCUUGUGUACGAAGAAGGUAUAGAGAGUUCGUG` has a bound/input enrichment of 0.303 ratio.
With `ACAGGCCGUGGUUAGGAAGGACGGAGAAGGGGCGUUCGCUCCUUUGGGACUUUUCAUGCCUCGUUUUUUUUUCAGAUGUGGCUUGGUCUGGGCGCAAGGUCCCAGCAGCCAGCUUAAGCU` the bound/input enrichment was 0.115 ratio.

Study 2
Target: RNA binding protein fox-1 homolog 2, RRM domain, GST-SBP tag (RBFOX2, Homo sapiens, UniProt O43251-10, residues 100-194)
Method: RNA Bind-n-Seq
Form: RNA
Sample: in vitro
Tested at: 365 nM
Notes: natural RNA segment, single round, ends assumed
Reference: no-protein control
Direction: higher = stronger binding
Shared flanks, not repeated: GGGAGUUCUACAGUCCGACGAUC … UGGAAUUCUCGGGUGCCAA
Construct (chain): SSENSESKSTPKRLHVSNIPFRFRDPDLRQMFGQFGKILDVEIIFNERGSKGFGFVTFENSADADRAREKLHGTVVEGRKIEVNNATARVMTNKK
Under “RBNS enrichment (R)”, `GAUGAUUUUCUCUGAUGAGGUCCUAUCUGCAAGGUCAAUGAGCAGACUUACAUGCCAUCUUCUGAGUAAAGAGUUUGAGGUUUUAAUUUAAAGGCAAUGUACAGCUAUAC` is recorded as 0.472.
`UGAAGAGAGCUGAUGGCAAGUCUUGUAGUCAUUUUGAUUUUAAUUGAAGGGUGAGCAUAACCUUGUGAACCAGCACUAGCUUGUUCCAAGCUGGAAUUUAUCUAAUCUAU` — result for “RBNS enrichment (R)”: 0.337.
Under “RBNS enrichment (R)”, `UUAAAUAUUAAUCAACUUUCCUUAAAAUAAAUAGCCUCUUAGGUAAAAAUAUAAGAACUUGAUAUAUUUCAUUCUCUUAUAUAGUAUUCAUUUUCCUACCUAUAUUACAC` is recorded as 1.04.
`GGUCAGCUAACUCUAGCUCAGGUUUGAGAACUCCUGUUGAGAAGAAGUGUGAGAUUUCUGCUUAAGAGAAGUUGUGAAAUUGCACUCCCAUCGAGGGUUCUGAGAGUGAC` — result for “RBNS enrichment (R)”: 0.625.
`UAUUUGAAAACAGAAAUUGGUACCUUGCACACAUCAUCUGUAAACUGUUCAGUUUAAAAUACUGUAGAUAAUUAACCAAGGUAGAAUGACCUUGUAAUGUAACUGCUCUU` — result for “RBNS enrichment (R)”: 1.32.
Under “RBNS enrichment (R)”, `GAGCCAGCUCCCUCACCCCUUCUUGCCUUCCCUCUGCCUGGCCUGGAACUCGGGCUUCUGCCCAUUGCCCUCUGAAGCUGCUUCCCAUCUGAUGUCACUGGGAGACAGCA` is recorded as 1.47.
For `CAUUCUCUUCCUGGCCAGUAGGAGUGCUGCUGUGCAGGGUCACUGCCUGCCCUGCUCCCUCUCUGGCUCCCAGAAGAUCACAUGCUACCUCUGUCUCAUUUACAAAUUGG`, “RBNS enrichment (R)” read 0.333.
`GAAACCACUUCAUCAGAAUGUGUGAGUCCUGGGGAUGCAUGGGGCACAGUUGAUGCUGCUUGGGACACGUUUCUUAGAGGGCUUACAGUAUGUAAAUAAUUGACAUUGGU`: “RBNS enrichment (R)” 6.25.
For `CACUGACCUUAACCACAACCAUUAGCCAGAAGAUACUGCAUGCUCCCUUGUGUCUGGAGUAUUCUGUCAUCUGCAAGCCCUGUUCUUACCUCACCUGUCCACGUUCACCA`, “RBNS enrichment (R)” read 0.977.

Study 3
Target: Hepatocyte nuclear factor 3-alpha (Foxa1, Mus musculus, UniProt P35582, residues 1-468, full length assumed)
Method: EMSA with sequencing
Form: double-stranded DNA, one strand shown
Sample: in vitro
Tested at: 10 and 20 nM
Notes: whole designed probe, mean of two concentrations, ends assumed
Reference: negative control set to 0
Direction: higher = stronger binding
Shared flanks, not repeated: GTGAGCGGTGCCCATTGATGGGGAAC … TTTCACTGGGATCGTGGGGAC
Construct (chain): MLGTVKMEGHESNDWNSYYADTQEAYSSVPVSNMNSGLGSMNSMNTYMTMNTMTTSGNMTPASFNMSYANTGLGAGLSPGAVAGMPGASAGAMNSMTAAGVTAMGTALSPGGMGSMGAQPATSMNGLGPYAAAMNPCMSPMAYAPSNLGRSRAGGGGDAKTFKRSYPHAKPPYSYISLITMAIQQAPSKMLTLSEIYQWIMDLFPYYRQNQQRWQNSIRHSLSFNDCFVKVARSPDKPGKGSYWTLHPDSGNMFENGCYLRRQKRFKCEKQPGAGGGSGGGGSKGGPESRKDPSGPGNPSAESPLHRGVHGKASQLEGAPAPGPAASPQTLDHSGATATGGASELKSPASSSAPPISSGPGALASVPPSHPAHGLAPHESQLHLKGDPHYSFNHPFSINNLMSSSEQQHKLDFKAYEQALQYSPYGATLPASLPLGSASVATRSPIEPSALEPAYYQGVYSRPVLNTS
Under “normalised bound fraction”, `CATCCCAGTTTTAATAGTGTCCAGCAGTTTCTTTAAGCATACATTTCTCATCTCCTCCTTGAAATAAAATTTTAGAAATGGATCTTGAGAACCCTGTTTACTTTGTCCGAAAAAAAAAAAAATCCCTTCACAACACTAAGAAACTTAAAGCACTTTCATAAATAGGGAAACAGCATCTTTTAATGTTTTATTG` is recorded as 0.237 ratio.
`TAAGCTTACACTACACCATGCTAGGGAAGAGAATAGGTCATTTCCAGGTGTCTCTGTATGGAAAAGAGAATGTTTTCCTTTCCAGTAGCTTAAGTAAACATCAAGTTTCATTGGCTCTGTTAGGGCTATTTTCATTTATTTCTGAACAAATGATCAGGATACACTAACTGTAGAGCCAATCACATTGTAACTA` — result for “normalised bound fraction”: 0.424 ratio.
Under “normalised bound fraction”, `GCATGAAGCGTTGGGTCCAACTGCATGAAGAGCACTGAGTCTCTCAGAGATGAGAGCATAAATGACTCAATCTTGATAGGTCTTGGTAAGCAAAGTAATCTAGAGCACATGGAATCACCAATAATTCTGCCTTTCAGAAGGCAGGATCCCCGCTCCAGATATCAGAGCCAATGGGTCTGGAAAGGCTGCATTT` is recorded as -0.0683 ratio.
`GCCTAGCACTGCTGTGTGTGCTTGCTATAGGTGTATCGTCTGATGCACATGAAAGCGGACCTAGTTAACACCCTTTGGGACAGGAGAGTTTATGTTTACTTTGCCTTGAATGGTTCTCATTCTAACCAGCGAACTCTAACTTTTTGTATATAATGATACTCTTTTAAAAAATCCTGTAACATGGAGGGTAAAG` — result for “normalised bound fraction”: 0.42 ratio.
`GCCACAGTTCAAGTTCAAAGAGAAACACTCTAGCAACTTCTGAAAGCAGGAACTGTATGCAACTGAATGACCTCATCCGGCACAGAAGCCAGAGCAAACAATGAAAAACAAACCGTACCAACTCTGGTACCAGTTACTGACCTTCCAGACCAAGAGAACGTGCTGGCAGCACTGGTGAAATGTACTTGTCTGT` — result for “normalised bound fraction”: 0.262 ratio.
`ATCTTCCCCCTCTTCCTTGCCCCACCAGCTCACCTTCCCGGGTTATTTGCAGATAGGAAAATAAATAAAGCCGGCATTCGTTAACCCTCTTCTGGCGCAAACTGCTGTTTGCTCTGGTCCTTTGGCGACGCCAGGCTCCGGGAGGATGAATCATGAGCAAAGCACCGTGTCAGGGCCATGATCCGGGGTGGCC` — result for “normalised bound fraction”: 0.393 ratio.

Study 4
Target: Interferon regulatory factor 7, full length, phosphomimetic (IRF7, Homo sapiens, UniProt Q92985, residues 1-503, S101K/S471D/S472D/S475D/S476D/S477D/S483D/S484D/S487D)
UniProt Q92985, sequence (whole entry, unmodified, looked up): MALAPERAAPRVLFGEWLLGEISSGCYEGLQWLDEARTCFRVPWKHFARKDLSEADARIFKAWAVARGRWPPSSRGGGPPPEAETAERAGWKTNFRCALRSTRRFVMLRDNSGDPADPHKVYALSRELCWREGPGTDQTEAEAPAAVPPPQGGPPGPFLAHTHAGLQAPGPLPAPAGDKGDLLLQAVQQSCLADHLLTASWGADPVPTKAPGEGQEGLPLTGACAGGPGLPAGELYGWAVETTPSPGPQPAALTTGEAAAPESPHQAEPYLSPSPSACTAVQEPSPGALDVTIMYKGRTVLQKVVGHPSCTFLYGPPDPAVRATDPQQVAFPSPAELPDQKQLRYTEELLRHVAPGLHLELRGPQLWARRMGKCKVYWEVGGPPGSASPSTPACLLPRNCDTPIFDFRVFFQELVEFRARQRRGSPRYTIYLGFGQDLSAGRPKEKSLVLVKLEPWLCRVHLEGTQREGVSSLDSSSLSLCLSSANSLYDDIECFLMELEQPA
Method: protein-binding microarray
Form: double-stranded DNA, one strand shown
Sample: in vitro
Tested at: 250 nM
Notes: 60-bp whole probe
Added: salmon DNA 0.4 mg/ml
Reference: random background probes
Direction: higher = stronger binding
Shared flanks, not repeated: GCCTAGCAC … GTCTTGATTCGCTTGACGCTGCTG
The log fluorescence of `AACGGTCTCGGTCTCGGGACGTGCTAG` is reported as 1.13 z-score.
With `GACGGTATCGGGTAACGGGACGTGCTA` the log fluorescence was 0.181 z-score.
`TTAGATCTCAGCCTGGATTAGTGCTAG` has a log fluorescence of -0.136 z-score.
The log fluorescence of `GACGATATCGGGTTTCGAGAAGTGCTA` is reported as 1.08 z-score.
`GTAGATCTCAGTCTCGATTAGTGCTAG` has a log fluorescence of 1.13 z-score.
For `TTAGGAATGGACTTTCGGTTAGTGCTA`, the log fluorescence was 0.985 z-score.
The log fluorescence of `GACGAATTGGGGTATCGAGACGTGCTA` is reported as -0.107 z-score.
`TCAGTTATCACTTCCAAACTGTGCTAG` gave a log fluorescence of 0.602 z-score.
With `TCATTTTTTTTTTTGGAACTGTGCTAG` the log fluorescence was 0.741 z-score.
With `GTAGTTTTCATTATTGTTTCGTGCTAG` the log fluorescence was 1.75 z-score.
`GACGGTTTCGGTCTCGGGACGTGCTAG` has a log fluorescence of 7.89 z-score.
`TTAGATTTCGTGACTGGATTAGTGCTA` gave a log fluorescence of 0.207 z-score.
With `TTAGGACTGCGGTTTCGGTTAGTGCTA` the log fluorescence was 6.97 z-score.
With `TTAGGACTGGGGTATAGGTTAGTGCTA` the log fluorescence was -0.175 z-score.
For `TTAGGTATCGACTTTCGTTTAGTGCTA`, the log fluorescence was 3.6 z-score.
For `TTAGGGATCGGGACTGGGTTAGTGCTA`, the log fluorescence was -0.423 z-score.
For `TTAGGTATCAGGACTGGGTTAGTGCTA`, the log fluorescence was -0.204 z-score.
For `TCATACCTCATCTTTCCCACTGTGCTA`, the log fluorescence was 1.1 z-score.
`TTAGGCTTCCTTCTCCTTTAGTGCTAG` gave a log fluorescence of 0.0449 z-score.
For `TTAGGTATCGACACTGGGTTGGTGCTA`, the log fluorescence was 0.0825 z-score.
`TCAGTTTCGTATCTTCATACTGTGCTA` has a log fluorescence of 11.3 z-score.
The log fluorescence of `TTAGATATCAGTCTGGATTAGTGCTAG` is reported as -0.335 z-score.
The log fluorescence of `TTACATTTATATCTTTGCTTGTGCTAG` is reported as 0.229 z-score.

A few entries again (study 1):
The bound/input enrichment of `CCAAGUGGACUGUUUCUGGCCUCGAGUCCGCUGCUGCCCAGCAUACACUUCUGGAGCAGCCUUAGUCCUGUCGCCCCACUGAGUCCUGCCAGGCUGCAAGGGCCGAACACACUUUUCCAG` is reported as 0.164 ratio.
With `AAUGUGACUUCCAUGAUAAACCUAAAGAAGACUACUUCAUCAGCUGAUGCUAAAAAUGUUAGUGUGACAUCUGAGGCUUUAUCUUCAAAUCCUUCCUACAACAGAGAAAAGCGUGUUUAU` the bound/input enrichment was 0.131 ratio.
The bound/input enrichment of `CAUAGGCCUGGGCUAGAGUGUCAAUGGCAGCCAGGGGUCUUCUCCAUCUCCAGAGGCCUUUAUAGAGCCGGCCAGAAUAUACAUUCCCUUCUGGCAAAAACCACUGGCACCCAGGAUCAU` is reported as 0.206 ratio.
`GUUCGGGGUAUUUUGUUGGGUGCUUUAGGAGGAGAGAAGAGGAGGACCUUGUCCUCAUCCUAGUAGUUUGGCUGGACUUGUACUGGCCGUUGGAAACCCCCAAGUACAUUUCCGUGUGGA` gave a bound/input enrichment of 0.572 ratio.
For `GCUCGGCAGCAGCGGCCCCGCCGGCCGGAGCGGGGGGGUGGGGCGCCGAGUGCGCGGGGAGGGGGGUCCUGGUCCUCGGCUCCUCGACUUGGUCGCGCCUCGACAGCGAACAUGUCUCGG`, the bound/input enrichment was 1.32 ratio.
